Measured values pooled from the literature.
Lines come from different studies, so protocols differ.
Method: steady-state kinetics
B1: enzyme (Anopheles gambiae, UniProt Q7PXJ0); chain MPFPYSIDFVESKQNEQLLKDFHGERTGFVQVGEKRWFFPSRFKQYAESLYSFEARPDDTWIVTYPRSGTTWSQEMVWLLCNELDFETAKSIPLTQRFPFLEFHLFVHDEVKAEFLKENEHDVESMKFIEQLSQPAGFMLAEMKTPRFIKTHLPISLLPPSVFEQKAKIIYVARNPSDVAVSYYHLNRLYRTQGYVGDFETFYNYFEKDLTPWSPYWEHIKEGWAERDRENVLFMYYEDMKRNLPDTIRKTAAFLGKSFSDDQIDTMCTHLDIRNFRHNKSVTCEELKAVGILNSGEQGFVRNGQVRGNAEEMTDDIKRRLNEWTERNLNGTDIRFPDC
B2: enzyme (Plasmodium falciparum, UniProt Q8IIG6); chain MTTYTLVLLRHGESTWNKENKFTGWTDVPLSEKGEEEAIAAGKYLKEKNFKFDVVYTSVLKRAICTAWNVLKTADLLHVPVVKTWRLNERHYGSLQGLNKSETAKKYGEEQVKIWRRSYDIPPPKLDKEDNRWPGHNVVYKNVPKDALPFTECLKDTVERVLPFWFDHIAPDILANKKVMVAAHGNSLRGLVKHLDNLSEADVLELNIPTGVPLVYELDENLKPIKHYYLLDSEELKKKMDEVANQGKAK
B3: MauG (Paracoccus denitrificans, UniProt Q51658); chain EQARPADDALAALGAQLFVDPALSRNATQSCATCHDPARAFTDPREGKAGLAVSVGDDGQSHGDRNTPTLGYAALVPAFHRDANGKYKGGQFWDGRADDLKQQAGQPMLNPVEMAMPDRAAVAARLRDDPAYRTGFEALFGKGVLDDPERAFDAAAEALAAYQATGEFSPFDSKYDRVMRGEEKFTPLEEFGYTVFITWNCRLCHMQRKQGVAERETFTNFEYHNIGLPVNETAREASGLGADHVDHGLLARPGIEDPAQSGRFKVPSLRNVAVTGPYMHNGVFTDLRTAILFYNKYTSRRPEAKINPETGAPWGEPEVARNLSLAELQSGLMLDDGRVDALVAFLETLTDRRYEPLLEESRAAQKD
B4: carbamoyl phosphate synthetase large subunit G575K (Escherichia coli, UniProt P00968); chain PKRTDIKSILILGAGPIVIGQACEFDYSGAQACKALREEGYRVILVNSNPATIMTDPEMADATYIEPIHWEVVRKIIEKERPDAVLPTMGGQTALNCALELERQGVLEEFGVTMIGATADAIDKAEDRRRFDVAMKKIGLETARSGIAHTMEEALAVAADVGFPCIIRPSFTMGGSGGGIAYNREEFEEICARGLDLSPTKELLIDESLIGWKEYEMEVVRDKNDNCIIVCSIENFDAMGIHTGDSITVAPAQTLTDKEYQIMRNASMAVLREIGVETGGSNVQFAVNPKNGRLIVIEMNPRVSRSSALASKATGFPIAKVAAKLAVGYTLDELMNDITGGRTPASFEPSIDYVVTKIPRFNFEKFAGANDRLTTQMKSVGEVMAIGRTQQESLQKALRGLEVGATGFDPKVSLDDPEALTKIRRELKDAGADRIWYIADAFRAGLSVDGVFNLTNIDRWFLVQIEELVRLEEKVAEVGITGLNADFLRQLKRKGFADARLAKLAGVREAEIRKLRDQYDLHPVYKRVDTCAAEFATDTAYMYSTYEEECEANPSTDREKIMVLGGGPNRIGQKIEFDYCCVHASLALREDGYETIMVNCNPETVSTDYDTSDRLYFEPVTLEDVLEIVRIEKPKGVIVQYGGQTPLKLARALEAAGVPVIGTSPDAIDRAEDRERFQHAVERLKLKQPANATVTAIEMAVEKAKEIGYPLVVRPSYVLGGRAMEIVYDEADLRRYFQTAVSVSNDAPVLLDHFLDDAVEVDVDAICDGEMVLIGGIMEHIEQAGVHSGDSACSLPAYTLSQEIQDVMRQQVQKLAFELQVRGLMNVQFAVKNNEVYLIEVNPRAARTVPFVSKATGVPLAKVAARVMAGKSLAEQGVTKEVIPPYYSVKEVVLPFNKFPGVDPLLGPEMRSTGEVMGVGRTFAEAFAKAQLGSNSTMKKHGRALLSVREGDKERVVDLAAKLLKQGFELDATHGTAIVLGEAGINPRLVNKVHEGRPHIQDRIKNGEYTYIINTTSGRRAIEDSRVIRRSALQYKVHYDTTLNGGFATAMALNADATEKVISVQEMHAQIK
B5: enzyme (Sinorhizobium meliloti, UniProt Q92UV7); chain MTNAEVTIAVRHEPMRIAGRLVDTDDRVEVRYPWNDTVVGTVPAGRAEHAREAFAIAAAYQPKLTRYERQKILLATAEALAARKEEISDVITLELGISKADSLYEVGRAFDVFTLAGQMCIRDDGEIFSCDLTPHGKARKIFTMREPLTAISAITPFNHPLNMVAHKVAPAIATNNCVVVKPTELTPMTALLLADILYEAGLPPEMLSVVTGWPADIGMEMITNPHVDLVTFTGSVPVGKLIAANAHYKRQVLELGGNDPLIILNDLSDDDLARAADLAVAGATKNSGQRCTAVKRILCQESVADRFVPLVLERAKRLRFGDPMDRSTDLGTVIHEKAAALFEERVMRAAEEGADILYHPGRSGALLPPIVVDRVPHQSDLVLEETFGPIIPIVRVPDDDDATITLSNSTAFGLSSGVCTNDYRRMQKYIAGLKVGTVNIWEVPGYRIEMSPFGGIKDSGNGYKEGVIEAMKSFTNVKTFSLPWP
B6: DdmC (Stenotrophomonas maltophilia, UniProt Q5S3I3); chain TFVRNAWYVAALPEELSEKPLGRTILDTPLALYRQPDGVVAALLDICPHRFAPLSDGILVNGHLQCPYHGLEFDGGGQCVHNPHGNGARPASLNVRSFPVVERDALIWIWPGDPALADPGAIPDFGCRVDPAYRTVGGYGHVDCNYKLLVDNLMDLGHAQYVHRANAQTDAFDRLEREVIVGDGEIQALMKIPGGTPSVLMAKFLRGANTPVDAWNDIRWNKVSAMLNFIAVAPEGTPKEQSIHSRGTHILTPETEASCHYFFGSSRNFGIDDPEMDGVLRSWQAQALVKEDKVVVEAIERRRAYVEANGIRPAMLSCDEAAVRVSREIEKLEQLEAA
B7: MCAT R178Q (Homo sapiens, UniProt Q8IVS2); chain GQGSQVVGMGRGLLNYPRVRELYAAARRVLGYDLLELSLHGPQETLDRTVHCQPAIFVASLAAVEKLHHLQPSVIENCVAAAGFSVGEFAALVFAGAMEFAEGLYAVKIQAEAMQEASEAVPSGMLSVLGQPQSKFNFACLEAREHCKSLGIENPVCEVSNYLFPDCRVISGHQEALRFLQKNSSKFHFRRTRMLPVSGAFHTRLMEPAVEPLTQALKAVDIKKPLVSVYSNVHAHRYRHPGHIHKLLAQQLVSPVKWEQTMHAIYERKKGRGFPQTFEVGPGRQLGAILKSCNMQAWKSYSAVDVL

| Substance | substrate | medium | pH | temperature | notes | added | Km |
| --- | --- | --- | --- | --- | --- | --- | --- |
| BaiA2 (Clostridium scindens, UniProt P19337) | C[C@H](CCC(=O)SCCNC(=O)CCNC(=O)[C@H](O)C(C)(C)COP(=O)(O)OP(=O)(O)OC[C@H]1O[C@@H](n2cnc3c(N)ncnc32)[C@H](O)[C@@H]1OP(=O)(O)O)[C@H]1CC[C@H]2[C@@H]3CC[C@@H]4CC(=O)CC[C@]4(C)[C@H]3C[C@H](O)[C@]12C |  | pH 8.7 | 37 °C |  | NADH | 1.5 µM |
| At3g26430 (Arabidopsis thaliana, UniProt Q9LIN2) | CCCC(=O)Oc1ccc([N+](=O)[O-])cc1 | E. coli soluble lysate | pH 7.5 | 30 °C | not purified |  | 2000 µM |
| B1 (enzyme) | O=[N+]([O-])c1ccc(O)cc1 |  | pH 6.5 | 37 °C |  |  | 207 µM |
| B2 (enzyme) | O=C(O)[C@H](O)COP(=O)(O)O |  | pH 7.5 | 37 °C |  |  | 182 µM |
| hscA (Escherichia coli, UniProt P0A6Z1) | Nc1ncnc2c1ncn2[C@@H]1O[C@H](COP(=O)(O)OP(=O)(O)OP(=O)(O)O)[C@@H](O)[C@H]1O |  | pH 7.3 | 25 °C |  |  | 22.8 µM |
| CoA persulfide reductase CDR-RHD (Enterococcus faecalis, UniProt A0ACD6TF65) | CC(C)(COP(=O)(O)OP(=O)(O)OC[C@H]1O[C@@H](n2cnc3c(N)ncnc32)[C@H](O)[C@@H]1OP(=O)(O)O)[C@@H](O)C(=O)NCCC(=O)NCCSS |  | pH 8 | 25 °C | NaCl 200 mM | FAD 100 nM, NADH 100 µM | 111 µM |
| B3 (MauG) | O=C1O[C@H]([C@@H](O)CO)C(O)=C1O |  | pH 7.5 | 25 °C |  | H2O2 100 µM | 2.2 µM |
| PTR1 (Trypanosoma brucei, UniProt O76290) | NC(=O)C1=CN([C@@H]2O[C@H](COP(=O)(O)OP(=O)(O)OC[C@H]3O[C@@H](n4cnc5c(N)ncnc54)[C@H](OP(=O)(O)O)[C@@H]3O)[C@@H](O)[C@H]2O)C=CC1 |  | pH 7.4 | 25 °C | apparent, cofactor varied |  | 1.7 µM |
| B4 | Nc1ncnc2c1ncn2[C@@H]1O[C@H](COP(=O)(O)OP(=O)(O)OP(=O)(O)O)[C@@H](O)[C@H]1O |  | pH 7.6 |  | KCl 100 mM | glutamine 10 mM, ornithine 10 mM | 70 µM |
| B5 (enzyme) | NC(=O)c1ccc[n+]([C@@H]2O[C@H](COP(=O)(O)OP(=O)(O)OC[C@H]3O[C@@H](n4cnc5c(N)ncnc54)[C@H](O)[C@@H]3O)[C@@H](O)[C@H]2O)c1 |  | pH 7.5 | 30 °C | cofactor varied |  | 58 µM |
| B6 (DdmC) | COc1c(Cl)ccc(Cl)c1C(=O)O |  |  |  | apparent | NADH 1 mM | 22 µM |
| B7 (MCAT R178Q) | CC(=O)SCCNC(=O)CCNC(=O)[C@H](O)C(C)(C)COP(=O)(O)OP(=O)(O)OC[C@H]1O[C@@H](n2cnc3c(N)ncnc32)[C@H](O)[C@@H]1OP(=O)(O)O |  | pH 6.8 | 20 °C | labelled substrate | holo-ACP 20 µM | 9.1 µM |

Some of these lines once more:
| Substance | substrate | medium | pH | temperature | notes | added | Km |
| --- | --- | --- | --- | --- | --- | --- | --- |
| B5 (enzyme) | NC(=O)c1ccc[n+]([C@@H]2O[C@H](COP(=O)(O)OP(=O)(O)OC[C@H]3O[C@@H](n4cnc5c(N)ncnc54)[C@H](O)[C@@H]3O)[C@@H](O)[C@H]2O)c1 |  | pH 7.5 | 30 °C | cofactor varied |  | 58 µM |
